Assay results from different studies.
Each line is one published result; not all experiments were run side by side.
Organism: Enterococcus faecium

CCCCCCC#Cc1cncc(-c2nnc(SCc3ccc(Cl)cc3)n2CCCN)c1 gave an MIC of 8 µg/mL (broth microdilution; ATCC 51559 MDR VRE; 18 to 24 h, 37 °C).
With CC[C@H](C)[C@H](NC(=O)[C@H](CC(C)C)NC(=O)[C@H](CCCNC(=N)N)NC(=O)[C@@H](N)CCCNC(=N)N)C(=O)N[C@@H](CCCNC(=N)N)C(=O)N[C@@H](CCCCN)C(=O)N[C@@H](CC(C)C)C(=O)N[C@@H](CCCCN)C(=O)NCC(=O)N1CCC[C@H]1C(=O)N[C@@H](CCCCN)C(=O)N[C@H](C(=O)N[C@@H](Cc1ccc(O)cc1)C(=O)N[C@@H](CC(C)C)C(=O)N[C@@H](Cc1ccc(O)cc1)C(=O)N[C@@H](Cc1ccccc1)C(=O)N[C@@H](CCCCN)C(=O)N[C@@H](CC(C)C)C(=O)N[C@@H](CCC(N)=O)C(=O)N[C@@H](CC(C)C)C(=O)N[C@@H](CC(C)C)C(=O)N[C@@H](CCCCN)C(=O)N[C@@H](CCCCN)C(N)=O)[C@@H](C)CC the MIC was 8 µM (ATCC 51559, vancomycin-resistant, Mueller-Hinton broth; 24 h).
CN[C@H](CC(C)C)C(=O)N[C@H]1C(=O)N[C@@H](CC(N)=O)C(=O)N[C@H]2C(=O)N[C@H]3C(=O)N[C@H](C(=O)N[C@H](C(=O)O)c4cc(O)cc(O)c4-c4cc3ccc4O)[C@H](O)c3ccc(c(Cl)c3)Oc3cc2cc(c3O[C@@H]2O[C@H](CO)[C@@H](O)[C@H](O)[C@H]2O[C@H]2C[C@](C)(N)[C@H](O)[C@H](C)O2)Oc2ccc(cc2Cl)[C@H]1O has an MIC of 64 µg/mL (VanB vancomycin-resistant; 18 h, 37 °C, 0.3 mM ZnSO4 LB).
CC(C)C[C@H](NC(=O)[C@@H](NC(=O)[C@H](CCCNC(=N)N)NC(=O)[C@H](CCC(N)=O)NC(=O)[C@H](Cc1ccccc1)NC(=O)[C@H](Cc1ccc(O)cc1)NC(=O)[C@H](CC(N)=O)NC(=O)[C@H](Cc1c[nH]c2ccccc12)NC(=O)[C@@H](NC(=O)[C@H](CCCNC(=N)N)NC(=O)[C@H](CCCCN)NC(=O)[C@@H](N)Cc1ccccc1)C(C)C)C(C)C)C(=O)N[C@H](C(=O)N[C@@H](CCCCN)C(=O)N[C@@H](CCCCN)C(=O)N[C@@H](Cc1ccc(O)cc1)C(=O)N[C@@H](C)C(N)=O)C(C)C has an MIC of 25 µM (broth dilution; KCTC 13225).
CCCCCCC#Cc1cncc(-c2nnc(SCc3cc([N+](=O)[O-])cc([N+](=O)[O-])c3)n2C2CCNCC2)c1 gave an MIC of 16 µg/mL (broth microdilution; ATCC 51559 MDR VRE; 18 to 24 h, 37 °C).
With CCCCCCC#Cc1cncc(-c2nnc(SCc3cc([N+](=O)[O-])cc([N+](=O)[O-])c3)n2C)c1 the MIC was at least 20 µg/mL (vancomycin-resistant; no activity at value).
CC[C@H](C)[C@H](NC(=O)[C@H](CC(C)C)NC(=O)[C@H](CCCNC(=N)N)NC(=O)[C@@H](N)CCCNC(=N)N)C(=O)N[C@@H](CCCNC(=N)N)C(=O)N[C@H](C(=O)N[C@@H](CCCCN)C(=O)N[C@H](C(=O)NCC(=O)N1CCC[C@H]1C(=O)N[C@H](C(=O)N[C@H](C(=O)N[C@@H](Cc1ccc(O)cc1)C(=O)N[C@@H](CCCCN)C(=O)N[C@@H](Cc1ccc(O)cc1)C(=O)N[C@@H](Cc1ccccc1)C(=O)N[C@@H](CCCCN)C(=O)N[C@@H](CCCCN)C(=O)N[C@@H](CCC(N)=O)C(=O)N[C@@H](CC(C)C)C(=O)N[C@@H](CC(C)C)C(=O)N[C@@H](CCCCN)C(=O)N[C@@H](CCCCN)C(N)=O)[C@@H](C)CC)[C@@H](C)CC)[C@@H](C)O)[C@@H](C)O gave an MIC of 16 µM (ATCC 51559, vancomycin-resistant, Mueller-Hinton broth; 24 h).
For CN[C@H](CC(C)C)C(=O)N[C@H]1C(=O)N[C@@H](CC(N)=O)C(=O)N[C@H]2C(=O)NC3C(=O)N[C@H](C(=O)N[C@H](C(=O)NCCC[N+](C)(C)C)c4cc(O)cc(O)c4-c4cc3ccc4O)[C@H](O)c3ccc(c(Cl)c3)Oc3cc2cc(c3OC2OC(CO)C(O)[C@H](O)[C@@H]2O[C@H]2CC(C)(NCc3ccc(-c4ccc(Cl)cc4)cc3)[C@H](O)[C@H](C)O2)Oc2ccc(cc2Cl)[C@H]1O (stereo partly drawn), the MIC was 0.3 µg/mL (ATCC BAA-2317 vanA; with: 100 µg/mL NaH2PO4 plus LTA).
With CC[C@H](C)[C@H](NC(=O)[C@H](CCCCN)NC(=O)[C@@H](NC(=O)[C@H](Cc1ccc(O)cc1)NC(=O)[C@H](CCCCN)NC(=O)[C@H](CCCCN)NC(=O)CNC(=O)[C@H](CCCCN)NC(=O)[C@@H](NC(=O)[C@H](C)NC(=O)[C@H](CC(C)C)NC(=O)[C@H](Cc1c[nH]c2ccccc12)NC(=O)CNC(=O)[C@@H](NC(=O)[C@H](Cc1ccccc1)NC(=O)[C@H](CCCCN)NC(=O)[C@H](CC(C)C)NC(=O)[C@H](Cc1ccccc1)NC(=O)[C@H](C)NC(=O)CNC(=O)[C@@H](N)CCSC)C(C)C)[C@@H](C)O)C(C)C)C(=O)N[C@@H](C)C(=O)N[C@@H](Cc1c[nH]c2ccccc12)C(=O)N[C@@H](CC(=O)O)C(=O)N[C@@H](Cc1c[nH]cn1)C(=O)N[C@@H](CCCCN)C(=O)NCC(=O)N[C@H](C(=O)N[C@H](C(=O)N[C@@H](CCSC)C(=O)N[C@@H](CCCCN)C(=O)N[C@@H](Cc1c[nH]c2ccccc12)C(=O)N[C@@H](CC(C)C)C(=O)N[C@@H](CC(N)=O)C(=O)N[C@@H](C)C(=O)NCC(=O)N[C@@H](CCC(N)=O)C(=O)N[C@H](C(=O)N[C@@H](Cc1ccccc1)C(=O)N[C@H](C(=O)N[C@@H](Cc1c[nH]c2ccccc12)C(=O)N[C@H](C(=O)N[C@@H](Cc1ccc(O)cc1)C(=O)N[C@@H](CCC(=O)O)C(=O)N[C@@H](CCC(N)=O)C(=O)N[C@H](C(=O)N[C@@H](CCCCN)C(=O)N[C@@H](CCCCN)C(=O)N[C@@H](CC(C)C)C(=O)N[C@@H](Cc1c[nH]c2ccccc12)C(=O)N[C@H](C(=O)O)[C@@H](C)O)[C@@H](C)CC)C(C)C)[C@@H](C)O)[C@@H](C)O)[C@@H](C)CC)[C@@H](C)O the MIC was 31.3 µg/mL (broth microdilution; 37 °C, MRS medium).
CCCCCCCCCC(=O)N[C@@H](Cc1c[nH]c2ccccc12)C(=O)N[C@H](CC(N)=O)C(=O)N[C@@H](CC(=O)O)C(=O)N[C@@H]1C(=O)NCC(=O)N[C@@H](CCCN)C(=O)N[C@@H](CC(=O)O)C(=O)N[C@H](C)C(=O)N[C@@H](CC(=O)O)C(=O)NCC(=O)N[C@H](CO)C(=O)N[C@@H]([C@H](C)CC(=O)O)C(=O)N[C@@H](CC(=O)c2ccccc2N)C(=O)O[C@@H]1C has an MIC of 8 µg/mL (resistant isolate; 16 h, with: Ca2+ 1.0 mM).
CC[C@H](C)[C@H](N)C(=O)N[C@@H](CCCNC(=N)N)C(=O)N[C@H](C(=O)N[C@@H](Cc1c[nH]c2ccccc12)C(=O)N[C@@H](Cc1c[nH]c2ccccc12)C(=O)N[C@@H](CCCCN)C(=O)N[C@H](C(=O)N[C@H](C(=O)N[C@@H](CCCNC(=N)N)C(=O)N[C@@H](CCCCN)C(=O)N[C@@H](Cc1c[nH]c2ccccc12)C(=O)N[C@@H](CCCCN)C(=O)N[C@@H](C)C(=O)N[C@H](C(=O)N[C@@H](Cc1c[nH]c2ccccc12)C(=O)N[C@@H](Cc1c[nH]cn1)C(N)=O)[C@@H](C)CC)C(C)C)[C@@H](C)CC)C(C)C gave an MIC of 25 µM (broth dilution; KCTC 13225).
The MIC of CN[C@H](CC(C)C)C(=O)N[C@H]1C(=O)N[C@@H](CC(N)=O)C(=O)N[C@H]2C(=O)N[C@H]3C(=O)N[C@H](C(=O)N[C@H](C(=O)O)c4cc(O)cc(O)c4-c4cc3ccc4O)[C@H](O)c3ccc(c(Cl)c3)Oc3cc2cc(c3O[C@@H]2O[C@H](CO)[C@@H](O)[C@H](O)[C@H]2O[C@H]2C[C@](C)(N)[C@H](O)[C@H](C)O2)Oc2ccc(cc2Cl)[C@H]1O is reported as over 16 µg/mL (VanB vancomycin-resistant).

Excerpt of the above:
With CC[C@H](C)[C@H](NC(=O)[C@H](CCCCN)NC(=O)[C@@H](NC(=O)[C@H](Cc1ccc(O)cc1)NC(=O)[C@H](CCCCN)NC(=O)[C@H](CCCCN)NC(=O)CNC(=O)[C@H](CCCCN)NC(=O)[C@@H](NC(=O)[C@H](C)NC(=O)[C@H](CC(C)C)NC(=O)[C@H](Cc1c[nH]c2ccccc12)NC(=O)CNC(=O)[C@@H](NC(=O)[C@H](Cc1ccccc1)NC(=O)[C@H](CCCCN)NC(=O)[C@H](CC(C)C)NC(=O)[C@H](Cc1ccccc1)NC(=O)[C@H](C)NC(=O)CNC(=O)[C@@H](N)CCSC)C(C)C)[C@@H](C)O)C(C)C)C(=O)N[C@@H](C)C(=O)N[C@@H](Cc1c[nH]c2ccccc12)C(=O)N[C@@H](CC(=O)O)C(=O)N[C@@H](Cc1c[nH]cn1)C(=O)N[C@@H](CCCCN)C(=O)NCC(=O)N[C@H](C(=O)N[C@H](C(=O)N[C@@H](CCSC)C(=O)N[C@@H](CCCCN)C(=O)N[C@@H](Cc1c[nH]c2ccccc12)C(=O)N[C@@H](CC(C)C)C(=O)N[C@@H](CC(N)=O)C(=O)N[C@@H](C)C(=O)NCC(=O)N[C@@H](CCC(N)=O)C(=O)N[C@H](C(=O)N[C@@H](Cc1ccccc1)C(=O)N[C@H](C(=O)N[C@@H](Cc1c[nH]c2ccccc12)C(=O)N[C@H](C(=O)N[C@@H](Cc1ccc(O)cc1)C(=O)N[C@@H](CCC(=O)O)C(=O)N[C@@H](CCC(N)=O)C(=O)N[C@H](C(=O)N[C@@H](CCCCN)C(=O)N[C@@H](CCCCN)C(=O)N[C@@H](CC(C)C)C(=O)N[C@@H](Cc1c[nH]c2ccccc12)C(=O)N[C@H](C(=O)O)[C@@H](C)O)[C@@H](C)CC)C(C)C)[C@@H](C)O)[C@@H](C)O)[C@@H](C)CC)[C@@H](C)O the MIC was 31.3 µg/mL (broth microdilution; 37 °C, MRS medium).
CCCCCCC#Cc1cncc(-c2nnc(SCc3cc([N+](=O)[O-])cc([N+](=O)[O-])c3)n2C2CCNCC2)c1 gave an MIC of 16 µg/mL (broth microdilution; ATCC 51559 MDR VRE; 18 to 24 h, 37 °C).
